Published values gathered from unrelated publications.
Each line is one published result; not all experiments were run side by side. ± gives the spread as reported. Where no end group is shown, it is not given here. [ ]: non-standard residue; d: D form.
abrB full length assumed: abrB full length assumed (Bacillus licheniformis, UniProt Q65PI4)
T1: NR1I2/RXRA (Homo sapiens); chain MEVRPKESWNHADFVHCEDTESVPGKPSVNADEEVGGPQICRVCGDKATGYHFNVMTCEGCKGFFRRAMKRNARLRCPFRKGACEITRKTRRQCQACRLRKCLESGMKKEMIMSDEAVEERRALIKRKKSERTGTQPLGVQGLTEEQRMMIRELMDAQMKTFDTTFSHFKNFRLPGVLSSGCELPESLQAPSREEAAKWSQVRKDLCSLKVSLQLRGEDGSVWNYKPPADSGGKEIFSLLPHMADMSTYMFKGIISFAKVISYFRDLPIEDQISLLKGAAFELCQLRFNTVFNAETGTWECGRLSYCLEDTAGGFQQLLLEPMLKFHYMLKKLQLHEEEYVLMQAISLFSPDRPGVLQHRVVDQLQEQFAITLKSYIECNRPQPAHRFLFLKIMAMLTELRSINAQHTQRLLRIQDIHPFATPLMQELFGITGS; chain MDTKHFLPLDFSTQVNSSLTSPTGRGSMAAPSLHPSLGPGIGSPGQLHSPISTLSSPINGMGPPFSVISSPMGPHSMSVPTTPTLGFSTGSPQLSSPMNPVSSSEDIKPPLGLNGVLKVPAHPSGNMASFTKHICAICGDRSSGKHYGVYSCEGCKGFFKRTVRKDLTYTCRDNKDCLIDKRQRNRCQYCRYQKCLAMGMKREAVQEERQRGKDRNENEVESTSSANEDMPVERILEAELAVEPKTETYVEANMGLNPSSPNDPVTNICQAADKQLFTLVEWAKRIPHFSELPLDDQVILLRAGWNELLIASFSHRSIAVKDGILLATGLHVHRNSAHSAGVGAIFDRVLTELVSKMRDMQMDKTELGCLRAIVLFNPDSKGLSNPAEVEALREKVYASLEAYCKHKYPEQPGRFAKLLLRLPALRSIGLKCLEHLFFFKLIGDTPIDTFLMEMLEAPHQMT
B1: UGT1A9 (Homo sapiens, UniProt O60656); chain GKLLVVPMDGSHWFTMRSVVEKLILRGHEVVVVMPEVSWQLGRSLNCTVKTYSTSYTLEDLDREFKAFAHAQWKAQVRSIYSLLMGSYNDIFDLFFSNCRSLFKDKKLVEYLKESSFDAVFLDPFDNCGLIVAKYFSLPSVVFARGILCHYLEEGAQCPAPLSYVPRILLGFSDAMTFKERVRNHIMHLEEHLLCHRFFKNALEIASEILQTPVTEYDLYSHTSIWLLRTDFVLDYPKPVMPNMIFIGGINCHQGKPLPMEFEAYINASGEHGIVVFSLGSMVSEIPEKKAMAIADALGKIPQTVLWRYTGTRPSNLANNTILVKWLPQNDLLGHPMTRAFITHAGSHGVYESICNGVPMVMMPLFGDQMDNAKRMETKGAGVTLNVLEMTSEDLENALKAVINDKSYKENIMRLSSLHKDRPVEPLDLAVFWVEFVMRHKGAPHLRPAAHDLTWYQYHSLDVIGFLLAVVLTVAFITFKCCAYGYRKCLGKKGRVKKAHKSKTH
Sequence of UniProt Q01130 (whole entry, looked up): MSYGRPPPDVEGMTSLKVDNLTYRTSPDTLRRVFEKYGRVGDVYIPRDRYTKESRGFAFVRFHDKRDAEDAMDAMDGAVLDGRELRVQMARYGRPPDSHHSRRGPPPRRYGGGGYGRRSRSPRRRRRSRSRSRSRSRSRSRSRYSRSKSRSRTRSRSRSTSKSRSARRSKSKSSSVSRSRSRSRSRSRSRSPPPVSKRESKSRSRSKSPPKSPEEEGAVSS
Sequence of UniProt Q980W9 (whole entry, looked up): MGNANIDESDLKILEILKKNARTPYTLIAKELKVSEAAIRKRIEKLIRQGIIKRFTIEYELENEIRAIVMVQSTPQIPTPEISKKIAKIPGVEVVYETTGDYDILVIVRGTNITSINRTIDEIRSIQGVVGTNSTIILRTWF
Sequence of UniProt P55769 (whole entry, looked up): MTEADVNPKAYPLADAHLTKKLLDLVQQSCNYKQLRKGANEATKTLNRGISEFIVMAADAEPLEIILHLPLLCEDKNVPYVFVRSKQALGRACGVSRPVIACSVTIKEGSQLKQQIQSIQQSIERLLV

TCAGCTGAATGAACTTGCTGACCCTCT (dsDNA) — Ki (T1, NR1I2/RXRA (Homo sapiens); fluorescence anisotropy competition; double-stranded DNA, one strand shown; added: DR3 FAM): 82.8 ± 3.6 nM
Insulin human — concentration (ELISA; rat, ventral cortex; intranasal, 20 µg per nostril, 120 min): 5.4 ± 1.4 pg/mg tissue
UUUCAGCUCCGGUCACGCUC (ssRNA; m5C at position 10) — Ki (SRSF2 full length assumed (Homo sapiens, UniProt Q01130); NanoBRET competition; HEK293; apparent, permeabilized cells, not purified): 84.4 nM
Ac-DNCQYVYNV-NH2 (N-acetyl, C-amide) — inhibition (mouse neutrophil elastase; inhibitor; peptide, wild type neutrophil lysate; 1.25 mM, 30 min preincubation, pH 8.0, 37 °C, added: MeOSuc-AAPV-pNA 1 mM): 28%
GCTGAATGAACTTGCTGACCCTCTGCTTTC (dsDNA) — Ki (T1, NR1I2/RXRA (Homo sapiens); fluorescence anisotropy competition; double-stranded DNA, one strand shown; added: DR3 FAM): 94.4 ± 4 nM
V[dI]IA (D-Ile2) — cell viability (PC-12; protection from Aβ1–42 toxicity, MTT; concentration not given, 6 h, Aβ to peptide ratio 1:5, added: Aβ1–42 2 µM; relative to: untreated cells): 76%
GGGAUCGUCAGGUGGGAUAAUCCUUACCUGUUCCUCCUCCGGAGGGCAGAUUAGAACAUGAUGAUUGGAGAUGCAUGAAACGUGAUUAACGUCUCUGCGUAAUCAGGACUUGCAACACCCUGAUUGCUCCUGUCUGAUU (structured RNA) — binding (SNU13 1-128 (Homo sapiens, UniProt P55769); competition): binds
UUUCAGCUCCGGUCACGCUC (ssRNA) — Ki (SRSF2 1-115 (Homo sapiens, UniProt Q01130); NanoBRET competition; apparent, not purified): 113 nM
GAGUUGAGUUGAGUUGAGUUGAGUUGAGUUGAGUUGAGUUGAGUUGAGUUGAGUU (ssRNA; single strand) — Kd (mtrB full length assumed T30C (Bacillus subtilis, UniProt P19466); filter binding; added: L-tryptophan 1 mM): 8 ± 0.1 nM
TCAGCTGAATGAACTTGCTGACCCTCTGCT (dsDNA) — Ki (T1, NR1I2/RXRA (Homo sapiens); fluorescence anisotropy competition; double-stranded DNA, one strand shown; added: DR3 FAM): 88.3 ± 4.2 nM
CATCGGTTTTGCCATTATTATGTTTAATCTTATTTTTGTAAACCTTGTCATCGCCGGGCTTCACTCTTATGCATGATCCGTGCGGTGCAGGAAGGTCCGGGCTTTTCACCGGGCCTTCCGCAGCTTTTTGTTTTAAATTGAGGAAAGGCATTCTTGGCTTGGCTTACAATCGCTTTTCTAATAAAATGAATGTAAGAAGATTCAAATCAGGAGGTTTACGATGGAACAGACGAAAGAGAC (dsDNA) — binding (abrB full length assumed; EMSA; double-stranded DNA, one strand shown): binds
B1 (UGT1A9) — Vmax/Km (COc1c(O)cc2oc(-c3ccc(O)c(O)c3)cc(=O)c2c1O; steady-state kinetics; pH 7.4, 37 °C): 1650 µL/min/mg
V[dV]IA (D-Val2) — cell viability (PC-12; protection from Aβ1–42 toxicity, MTT; concentration not given, 6 h, Aβ to peptide ratio 1:1, added: Aβ1–42 2 µM; relative to: untreated cells): 70%
GATTGCAGAGATACTACAAAGGTATTACAAAAAAATAGGCATAGAGAATGTGAATCAGTTGATACTAACTACTATAAAATAGTTCGTATGTCGAACCTTTCTTTACCGAATTCATTATATATCCTTTACCTTAATTCTCACTTGTATGATAAAAGTAGGTATTTTAGATTCGACGTTAAGAGAAGGAG (dsDNA) — binding (lysM 1-142 (Sulfolobus solfataricus, UniProt Q980W9); EMSA; double-stranded DNA, one strand shown): binds
ACCAGTCTTTTTCCTTTGTTATTCATAATATCATGAACAAATTTTGACGATTTTGTGACATTTGGGTGAAAAAAAGGTGAACAATCGAAAAAAATAAGGCTAATTGGTGAAGATTTTGATAGCATAGCAAGGTAGAAGAAAAAAGTTTTTCAGAATCCTTTTATCTTAGATATTCTGACCAAATTTTAGACATCATTAAGGAAGGATGGTGAT (dsDNA) — binding (abrB full length assumed; EMSA; double-stranded DNA, one strand shown): binds

Some of these lines once more:
Insulin human — concentration (ELISA; rat, ventral cortex; intranasal, 20 µg per nostril, 120 min): 5.4 ± 1.4 pg/mg tissue
CATCGGTTTTGCCATTATTATGTTTAATCTTATTTTTGTAAACCTTGTCATCGCCGGGCTTCACTCTTATGCATGATCCGTGCGGTGCAGGAAGGTCCGGGCTTTTCACCGGGCCTTCCGCAGCTTTTTGTTTTAAATTGAGGAAAGGCATTCTTGGCTTGGCTTACAATCGCTTTTCTAATAAAATGAATGTAAGAAGATTCAAATCAGGAGGTTTACGATGGAACAGACGAAAGAGAC (dsDNA) — binding (abrB full length assumed; EMSA; double-stranded DNA, one strand shown): binds
